Measured values collected from several papers.
Every numbered part comes from another study and shows a few of its results, in no order. Positions count from the first letter of the parent shown.

Block 1
Target: FOSL2, bZIP domain (human)
Method: DHFR protein complementation
Sample: yeast
Notes: single substitutions, most at no-binding floor
Baseline: wild-type JUN-FOS pair
Reading: higher = stronger binding
Endpoint: binding fitness
Starting sequence: JUN, bZIP domain (human); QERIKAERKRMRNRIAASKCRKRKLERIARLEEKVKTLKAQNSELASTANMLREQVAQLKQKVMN; partner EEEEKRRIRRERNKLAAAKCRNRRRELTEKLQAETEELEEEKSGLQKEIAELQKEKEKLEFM
E32M: 0.0212 natural log
V35A: -0.138 natural log
T48A: -0.000793 natural log
A40E: 0.103 natural log
S47R: 0.123 natural log
E33R: -0.0388 natural log
L59P: -1.42 natural log
L38W: -1.09 natural log
V35Y: -0.257 natural log
L31Q: -0.221 natural log
A57Y: 0.0542 natural log
S43V: -0.0271 natural log
K36G: -0.0263 natural log
T37M: 0.337 natural log
A40Y: -0.258 natural log
T37D: 0.0568 natural log
L31T: -0.575 natural log
Q55H: 0.0154 natural log
L52G: -1.42 natural log
S43G: 0.0726 natural log
N42A: -0.251 natural log
T37H: 0.138 natural log
E32G: -0.135 natural log
V56W: -1.31 natural log

Block 2
Target: ABI1, truncated, D143A, DHFR fusion (Arabidopsis thaliana)
Method: DHFR PCA, deep sequencing
Sample: yeast
Notes: methotrexate growth selection, single substitutions
Together with: (+)-ABA 0.0091 µM
Baseline: wild-type fitted maximum
Reading: higher = stronger binding
Endpoint: relative binding score
Starting sequence: PYL1, truncated, DHFR fusion (Arabidopsis thaliana); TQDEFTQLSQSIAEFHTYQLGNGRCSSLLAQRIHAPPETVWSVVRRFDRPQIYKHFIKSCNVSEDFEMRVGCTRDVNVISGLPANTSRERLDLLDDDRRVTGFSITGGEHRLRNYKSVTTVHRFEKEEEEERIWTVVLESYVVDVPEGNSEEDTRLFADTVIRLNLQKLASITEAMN
E67W: -4.67%
L93N: -3.56%
V136E: -4.06%
K126T: 56.2%
D3V: 7.03%
I12Q: -4.41%
V70C: -4.76%
L29F: -1.31%
R132K: 50.6%
S87G: 1.32%
P36V: -2.66%
R32L: 36%
R74Y: -2.96%
V142H: 3.21%
S26Q: 2.35%
V100L: -1.59%

Block 3
Target: CCNB2, cyclin fold, Cln2 fusion (human)
Method: yeast growth competition, sequencing
Sample: yeast
Notes: weak parent motif
Baseline: not given
Reading: higher = stronger binding
Endpoint: normalised enrichment score
Starting sequence: WEE1 docking peptide (human); HKTFRKLRLFDTP
HKTFRKLRLMDTP [F10M]: 0.614
HKTFRKLRLFLTP [D11L]: 0.887
HKTFRKCRLFDTP [L7C]: 1.31
HRTFRKLRLFDTP [K2R]: 0.711
HNTFRKLRLFDTP [K2N]: 0.28
HKTFRKLRLFDDP [T12D]: 1.18
HKTFYKLRLFDTP [R5Y]: 0.404
HKAFRKLRLFDTP [T3A]: 0.361
IKTFRKLRLFDTP [H1I]: 1.1
HKTFRKLRNFDTP [L9N]: 0.415
HKTFRKLRWFDTP [L9W]: 1.01
HKTFRKLRLGDTP [F10G]: 0.205
HKTFRKLRLFETP [D11E]: 0.746
HKTFRKLRLFDTQ [P13Q]: 0.428
HKTFRKLLLFDTP [R8L]: 0.692
HKTWRKLRLFDTP [F4W]: 1.22
HKTFRKSRLFDTP [L7S]: 0.193
HKTFRKLRLFTTP [D11T]: 0.683
HKTFRKLRCFDTP [L9C]: 0.678
HKTFRKLRLFDTY [P13Y]: 0.836
HKTFRKRRLFDTP [L7R]: 0.844
HDTFRKLRLFDTP [K2D]: 0.177
HATFRKLRLFDTP [K2A]: 0.379
HKTFCKLRLFDTP [R5C]: -0.11
HKTFRDLRLFDTP [K6D]: 0.282

Block 4
Target: Sal-like protein 4, full length isoform B (SALL4, Homo sapiens, UniProt Q9UJQ4-2, residues 1-616)
Method: universal PBM
Form: double-stranded DNA, one strand shown
Sample: in vitro
Tested at: not given
Notes: 8-mer, flanks averaged, mean of replicates
Reading: higher = stronger binding
Endpoint: E-score
CCACTCAC: -0.0954
TCCTGGCA: -0.0669
TCACCGAA: -0.00362
CGGGGGGA: -0.332
AGTGAGTG: -0.103
ACCATACC: -0.0698
CTGCTGCA: -0.197
TCCTCACA: -0.0354
AGATTAAA: 0.213
GCTGTACC: -0.247
ACGCCAGG: -0.191
TAATCGAA: 0.159
TCCTCCGA: -0.257
CATTGAAG: 0.0496
ATCTTCTC: 0.0837
ACCAACCT: -0.113
TCGAGAGA: -0.14
ACTCCCGC: -0.0414
AATCGGTC: -0.0867
ATCAACAA: 0.215
AAGTATGG: 0.103
CCTGCAGG: -0.286
CTTAGCTA: -0.0158
ATCGGTTG: 0.0054
GTGGCCAA: -0.264

Block 5
Target: RNA binding protein fox-1 homolog 2, RRM domain, GST-SBP tag (RBFOX2, Homo sapiens, UniProt O43251-10, residues 100-194)
Method: RNA Bind-n-Seq
Form: RNA
Sample: in vitro
Tested at: 365 nM
Notes: natural RNA segment, single round, ends assumed
Baseline: no-protein control
Reading: higher = stronger binding
Endpoint: RBNS enrichment (R)
Residues (chain): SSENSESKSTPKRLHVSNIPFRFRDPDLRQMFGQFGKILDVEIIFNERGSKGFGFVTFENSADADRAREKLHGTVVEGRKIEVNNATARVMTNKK
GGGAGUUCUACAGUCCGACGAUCUGAAGGAUUUAGACAAGGUUUUGAAAAGGAUAAUCAUGGGUUAGAAGGAAGUGUUUGAAAGUCACUUUGAAAGUUAGUUUUGGGCCAGCACGGUAGCUCACCCUUGUAAUUGGAAUUCUCGGGUGCCAA: 4.42
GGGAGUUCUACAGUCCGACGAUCUAUAACAGAUUGCUUAACUUCUACUUGCCAACAUCUGCCUUGCUGGACUUGUAUGGGAUUGUCUUCUUGAUUUGAAUUGUACCGUCUUUGUUGACACAGUAGGGCUGGGCUGGAAUUCUCGGGUGCCAA: 0.7
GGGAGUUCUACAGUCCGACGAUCUGGUGUCUCAUGUGUACUUCCUGUCUGUCCCCUUUGAUGGCUGUGCGGUCAUCCUAUCGGCGUGGCCUAGGUCCCUUGUGUGUGUAGCACAUCCCUGCUUUUGACUGAACUGGAAUUCUCGGGUGCCAA: 0.533
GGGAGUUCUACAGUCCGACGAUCGACCGCCCCUCUUGAGGAAGCAGAAUUAACAUCAGAAUACAAACAGCAUCAGGGCAACCCACUUCAGUGUUCUCUUUUAAAAAUCAGUUCCUGCUGGGUGUGGUGGCGCAUGGAAUUCUCGGGUGCCAA: 0.851
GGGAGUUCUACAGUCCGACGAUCGUGACAGUAAUGGUUAUUACAAUAAAAAUAAUAAAAUCACCAUCAUUCUAUUUUUAACCAAAAGUAUACAUUUUACUUUGGCAUGAAAAAUGAUCCCCUUGACUGCAUCAUGGAAUUCUCGGGUGCCAA: 0.382
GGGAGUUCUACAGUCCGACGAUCAAGGGACUUGCCUAAAGCCACCCAGCAACUCAGCAGCAGAACCAAGAUGGGCCCCAGGCUCCUCCAUAUGGCCCAGGGCUUACCACCCUAUCACACGUGGCCUUGUCUAGUGGAAUUCUCGGGUGCCAA: 0.267
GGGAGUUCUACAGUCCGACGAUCUCUAAGGGCAAACAUUUUUCCAAGUCUUGCCAUAUUUCAAGCAAAGAGGUGCCCAGGCCUGAGGUACUCACAUAAAUGCUUUGUUUUGCUGGUGAUUUAACCAGUGCUUGUGGAAUUCUCGGGUGCCAA: 0.657
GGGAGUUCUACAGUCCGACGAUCCCCACUGGGUUUAAGAGCAUCUUGAAUGUAUAAUCCUUUUUGUAACCCAGGUUGGUUUCUACUUUUACCAGUCACCCAAACAUAUUUAUGUUUUUAGUUUUAUGUACUCAUGGAAUUCUCGGGUGCCAA: 0.906
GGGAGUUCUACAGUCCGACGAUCUUUCUCUUGUUCUUGAAACAUUGCAACCAAAAAGGUCAGCACAAAGGCCUUCACCUACGUGAAGACCUCCUGGUAGGAUCUGUCCAUGGGAUGGAGAACCACUCUGUCCAUGGAAUUCUCGGGUGCCAA: 0.256
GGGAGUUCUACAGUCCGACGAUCCACAGUUCUGUAGACAUCACUACACCGAUGUAGUUUCUCAAAUUUUAGCAAUAUGCUCUACAUAAAAUCACUACAGAGAUACUAGUGGGGAAGACGAUUAACACACCUCUUGGAAUUCUCGGGUGCCAA: 0.313
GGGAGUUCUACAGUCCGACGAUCCUGGGGUAUUAUAGGCAGUACUUUAAAUUGCAAAGUCUUCCGGGCCUAUUUUCCUCUACAUUUUUGUAAUUAACUCUGGGGGCUUACUUGUUUUGGCAGUACUGAAAUCAUGGAAUUCUCGGGUGCCAA: 0.643
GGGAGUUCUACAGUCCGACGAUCGAUUCUGUAGCUUUAACUUGUAAACCACAUCUUUUUUGCACUUUUUUUUAUAAAGCAAAAACGUGCCGUUUAAACCACUGGAUCUAUCUAAAUGCCGAUUUGAGUUCGCGUGGAAUUCUCGGGUGCCAA: 0.312

A few entries again (block 2):
E67W: -4.67%
L93N: -3.56%
V136E: -4.06%
K126T: 56.2%
D3V: 7.03%
I12Q: -4.41%
V70C: -4.76%
